Assay results from different studies.
Compare with care: the assays were run in different laboratories. ± gives the spread as reported.

Structure (SMILES)	assay	test system	setting	scale	quantity	result
CC1=C(C(=O)Nc2ccc(F)cc2)C(c2ccccc2Cl)NC(=S)N1 (centres unmarked)	contraction, calcium channel antagonist	isolated rat ileum	with: K+ 80 mM		IC50	22.6 ± 1.99 µg/mL
C=C(NC(=O)C(=C)NC(=O)c1csc(C2=NC3c4csc(n4)C4NC(=O)c5csc(n5)C(C(C)(O)C(C)O)NC(=O)C5CSC(=N5)C(=CC)NC(=O)C(C(C)O)NC(=O)c5csc(n5)C3(CC2)NC(=O)C(C)NC(=O)C(=C)NC(=O)C(CCSC)NC(=O)C(C(C)CC)NC2C=Cc3c(C(C)O)cc(nc3C2O)C(=O)OC4C)n1)C(N)=O (centres unmarked)	protein synthesis, coupled transcription-translation, refers to: luciferase	Escherichia coli S30 extract	1 h, 37 °C		IC50	0.33 ± 0.03 µM
C[C@@H](O)[C@H](NC(=O)[C@H](CCCCN)NC(=O)COCCN)C(=O)N[C@@H](CCCNC(=N)N)C(=O)NC(C)(C)C(=O)N[C@@H](CCCNC(=N)N)C(=O)NC(C)(C)C(=O)N[C@H](C(=O)N[C@@H](CO)C(=O)N[C@@H](Cc1c[nH]cn1)C(=O)N[C@@H](Cc1ccc(O)cc1)C(=O)NCC(=O)O)[C@@H](C)O	platelet aggregation	human whole blood	with: collagen I		IC50	8 µM
CCCCn1cc(C(=O)O)c(=O)c2cc(F)c(Nc3cccc(Cl)c3)c(N)c21	DPPH radical scavenging		30 min		IC50	44.4 ± 1.74 µg/mL
CONC(=O)[C@H]1[C@@H](O)[C@@]2(O)c3c(OC)cc(OC)cc3O[C@@]2(c2ccc(OC)cc2)[C@@H]1c1ccccc1	cap-dependent translation, FLuc reporter	Krebs-2 cell extract			IC50	0.054 ± 0.004 µM
CC(=O)O[C@H]1CC[C@]2(C)[C@H]3CC=C4[C@@H]5[C@@H](C)[C@H](C)CC[C@]5(C)CC[C@@]4(C)[C@]3(C)CC[C@H]2C1(C)C	hydrogen peroxide scavenging, colorimetric				IC50	286.9 ± 1.35 µg/mL
CC1=C(C(=O)O)C(c2ccccc2Br)NC(=S)N1 (centres unmarked)	contraction, calcium channel antagonist	isolated rat ileum	with: K+ 80 mM		IC50	24.8 ± 1.94 µg/mL
C=C(NC(=O)C(=C)NC(=O)c1csc(C2=NC3c4csc(n4)C4NC(=O)c5csc(n5)C(C(C)(O)C(C)O)NC(=O)C5CSC(=N5)C(=CC)NC(=O)C(C(C)O)NC(=O)c5csc(n5)C3(CC2)NC(=O)C(C)NC(=O)C(=C)NC(=O)C(C(C)C)NC2C=Cc3c(C(C)O)cc(nc3C2O)C(=O)OC4C)n1)C(N)=O (centres unmarked)	protein synthesis, inhibitor, coupled transcription-translation	Escherichia coli S30 extract		reference: thiostrepton A	IC50 fold change	≥ 5 fold
CC[C@H](C)[C@H](NC(=O)[C@H](CCCNC(=N)N)NC(=O)[C@@H](N)CCCNC(=N)N)C(=O)N[C@@H](CCCNC(=N)N)C(=O)N[C@@H](Cc1ccccc1)C(=O)N[C@@H](CCCNC(=N)N)C(=O)N1CCC[C@H]1C(=O)N1CCC[C@H]1C(=O)N[C@@H](Cc1ccc(O)cc1)C(=O)N[C@@H](CC(C)C)C(=O)N1CCC[C@H]1C(=O)N[C@@H](CCCNC(=N)N)C(=O)N1CCC[C@H]1C(=O)NCC(=O)N[C@@H](CCCNC(=N)N)C(=O)N[C@@H](CCCNC(=N)N)C(=O)N1CCC[C@H]1C(=O)N[C@@H](CCCNC(=N)N)C(=O)N[C@@H](Cc1ccccc1)C(=O)N1CCC[C@H]1C(=O)N1CCC[C@H]1C(=O)N1CCC[C@H]1C(=O)N[C@@H](Cc1ccccc1)C(=O)N1CCC[C@H]1C(=O)N[C@H](C(=O)N1CCC[C@H]1C(=O)N[C@@H](CCCNC(=N)N)C(=O)N[C@H](C(=O)N1CCC[C@H]1C(=O)N[C@@H](CCCNC(=N)N)C(=O)N[C@H](C(=O)N1CCC[C@H]1C(=O)O)[C@@H](C)CC)[C@@H](C)CC)[C@@H](C)CC	coupled transcription/translation, firefly luciferase reporter	Escherichia coli lysate	1 h, 30 °C		IC50	< 5 µM
CCCCn1cc(C(=O)O)c(=O)c2cc(F)c(Nc3ccccc3Cl)c(N)c21	DPPH radical scavenging		30 min		IC50	36.25 ± 0.21 µg/mL
CCCCCC(O)C=CC=O (centres unmarked)	loss of free thiol groups	rat striatal synaptosomes	15 min		IC50	500 µM

Repeated from above:
Structure (SMILES)	assay	test system	setting	scale	quantity	result
CC(=O)O[C@H]1CC[C@]2(C)[C@H]3CC=C4[C@@H]5[C@@H](C)[C@H](C)CC[C@]5(C)CC[C@@]4(C)[C@]3(C)CC[C@H]2C1(C)C	hydrogen peroxide scavenging, colorimetric				IC50	286.9 ± 1.35 µg/mL
CC1=C(C(=O)O)C(c2ccccc2Br)NC(=S)N1 (centres unmarked)	contraction, calcium channel antagonist	isolated rat ileum	with: K+ 80 mM		IC50	24.8 ± 1.94 µg/mL
